Experimental data collected from several papers.
Protocols differ between the studies behind these lines. ± gives the spread as reported.
Target: Tyrosine-protein kinase HCK (HCK, Homo sapiens, UniProt P08631)
Chain of UniProt P08631 (whole entry, looked up): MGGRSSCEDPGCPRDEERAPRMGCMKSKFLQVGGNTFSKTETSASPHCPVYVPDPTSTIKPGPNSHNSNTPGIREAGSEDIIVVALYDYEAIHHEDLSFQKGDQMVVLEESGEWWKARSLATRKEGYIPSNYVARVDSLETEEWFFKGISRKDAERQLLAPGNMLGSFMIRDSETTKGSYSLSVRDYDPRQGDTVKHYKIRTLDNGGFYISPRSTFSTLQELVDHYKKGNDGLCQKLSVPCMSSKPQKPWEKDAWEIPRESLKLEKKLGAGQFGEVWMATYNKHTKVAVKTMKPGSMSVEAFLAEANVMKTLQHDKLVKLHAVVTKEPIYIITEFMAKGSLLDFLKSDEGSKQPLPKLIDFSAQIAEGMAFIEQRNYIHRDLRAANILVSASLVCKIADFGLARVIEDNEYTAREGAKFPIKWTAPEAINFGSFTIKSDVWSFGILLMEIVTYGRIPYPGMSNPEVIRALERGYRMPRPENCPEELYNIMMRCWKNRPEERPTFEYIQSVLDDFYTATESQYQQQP

CNc1ncc2c(/C=C/C(=O)N3CCC(OC)CC3)nn(Cc3cccc(C(F)(F)F)c3)c2n1
remaining activity (kinase activity, inhibitor; 1 µM; relative to: untreated control): 84%

C=CC(=O)N1CCC[C@@H](n2nc(-c3ccc(Oc4ccccc4)cc3)c3c(N)ncnc32)C1
remaining activity (kinase activity, inhibitor, HotSpot radiometric; 100 nM, added: ATP 10 µM): 15 ± 0.2%

COc1cc(-c2cncc3c2CN(C)Cc2cc(N4CCNCC4)ccc2-3)cc(OC)c1OC
remaining activity (kinase activity; 1 µM, added: ATP 10 µM; relative to: DMSO control): 101%

[2H]c1cc(C)c(NC(=O)c2cnc(Nc3cc(N4CCCCC4)nc(C)n3)s2)c(Cl)c1
inhibition (0.0001 µM): > 50%

COc1ccc(F)cc1C(=O)NCc1ccc(-c2nn([C@@H](C)C(F)(F)F)c(N)c2C(N)=O)cc1
inhibition (target engagement, competitive chemoproteomics; human PBMCs; 1 µM): -8.5%

CCN(CC)c1ccc(C2=NNC(=O)CC2C)cc1[N+](=O)[O-] (stereo not shown)
remaining activity (kinase activity; 10 µM): 87%

C=CC(=O)N1CCC([C@@H]2CCNc3c(C(N)=O)c(-c4ccc(Oc5ccccc5)cc4)nn32)CC1
remaining activity (kinase activity, inhibitor, HotSpot radiometric; 100 nM, added: ATP 10 µM): 83.3%

[2H]c1cc(C)c(NC(=O)c2cnc(Nc3cc(N4CCC(O)CC4)nc(C)n3)s2)c(Cl)c1
inhibition (0.001 µM): > 50%

C=CC(=O)N1CCC[C@@H](n2nc(-c3ccc(Oc4ccccc4)cc3)c3c(N)ncnc32)C1
remaining activity (0.1 µM): 102%

Cc1cc(Nc2cc(N3CCN(C)CC3)nc(Sc3ccc(NC(=O)C4CC4)cc3)n2)[nH]n1
remaining activity (0.03 µM; relative to: control): 104%
